Measurements pooled from the literature.
Each line is one published result; not all experiments were run side by side. ± gives the spread as reported.

CCCC(CCC)C(=O)[O][Pt]([NH2])([NH2])([Cl])([Cl])[O]C(=O)C(Cl)Cl — depolarised mitochondria cells (PSN1; 1 µM, 24 h): 30 to 40%
O=C1OCC2=C1C(c1cccc(Br)c1)C1=C(N2)C(=O)c2ccccc2C1=O (stereo not shown) — cells in G2/M phase (SK-LU-1 cells; PI flow cytometry; 0.32 µM, 24 h): 91.7%
O=Cc1c(O)ccc2ccccc12 — log2 fold change (HUVEC; RNA sequencing, refers to: RRM2; 75 µM, 24 h; relative to: DMSO): -4.29
CCCCCCCCC/C=C/C=C/C(=O)N[C@H](C(=O)N[C@H]1C[C@@H](O)CCNC(=O)/C=C/[C@H](C)NC1=O)[C@@H](C)O — antiproliferative concentration (MDA-MB-361; trypan blue cell counting; 2 days): 0.25 µM
CCC(=C(c1ccc(Cl)cc1)c1ccc(OCCCN(C)C)cc1)c1ccc(OC)cc1 — alkaline phosphatase activity (Ishikawa; estrogenic activity, agonist; 100 nM, 72 h, unit not given; relative to: DMSO): 1.86 ± 0.73
N=C(N/N=C/c1ccc2ccccc2c1)N/N=C/c1ccc2ccccc2c1 — selectivity ratio (PANC-1; crystal violet; 72 h; relative to: IC50 hTERT-HPNE over IC50 PANC-1): 2.6
CC(=O)OC[C@H]1O[C@@H](Sc2sc(C(=O)c3ccc(Br)cc3)c(N)c2-c2nc3ccccc3s2)[C@H](OC(C)=O)[C@@H](OC(C)=O)[C@@H]1OC(C)=O — growth (SK-MEL-5; SRB; 10 µM, 48 h; relative to: untreated): 22.1%
Cc1ccc(S(=O)(=O)Nc2ccc(O)c3ccccc23)c(C)c1 — growth inhibition (PANC-1; 5 µM, day 4; relative to: DMSO): > 50%
CC/C=C\C/C=C\C/C=C\C/C=C\C/C=C\C/C=C\CCC(=O)Nc1ccn(C2OC(CO)C(O)C2(F)F)c(=O)n1 (stereo not shown) — TGI (CAKI-1; NCI60 screen): 11.7 µM
COc1cc(CNC(=O)C[C@H](C)CCC=C(C)C)ccc1OCc1cn(-c2cccc(C(F)(F)F)c2)nn1 — growth percent (TK-10; SRB; 10 µM, 48 h): 102%
COc1ccc(CN2C(=O)C(=O)c3cc(NC(C)=O)ccc32)cc1 — Bax protein level (K562; western blot; 1 to 10 µM, 24 h): increased
COc1cc(CNC(=O)C[C@H](C)CCC=C(C)C)ccc1OCc1cn(-c2ccc(Br)cc2)nn1 — growth percent (KM12; SRB; 10 µM, 48 h): 94.6%
Cc1sc2c(c1C)C(c1ccc(Cl)cc1)=N[C@@H](CC(=O)NCCCCCCCCC(=O)N1CCN(C(=O)c3cc(Cc4n[nH]c(=O)c5ccccc45)ccc3F)CC1)c1nnc(C)n1-2 — earliest phosphorylation time (SU-DHL-5; Western blot, refers to: ATM, ATR, CHK1, CHK2; 200 nM): 30 min
COc1cc(CNC(=O)C[C@H](C)CCC=C(C)C)ccc1O — growth percent (SK-MEL-5 melanoma cells; SRB; 10 µM, 48 h): 97.7%
COc1ccc([C@@H]2CC(=O)c3c(O)cc(O[C@@H]4O[C@H](CO[C@@H]5O[C@@H](C)[C@H](O)[C@@H](O)[C@H]5O)[C@@H](O)[C@H](O)[C@H]4O)cc3O2)cc1O — viability (A549; cell growth or viability, MTS; 50 µg/mL, 72 h): 53.4%
COc1cc(CNC(=O)C[C@H](C)CCC=C(C)C)ccc1OCc1cn(-c2ccc(F)cc2)nn1 — growth percent (TK-10; SRB; 10 µM, 48 h): 91.8%
CCN1CCN(c2ccc(Nc3ncc(C)c(Nc4ccc5cn[nH]c5c4)n3)cc2OC)CC1 — apoptotic cells (PC-9; annexin V-FITC/PI flow cytometry; 3 µM, 24 h): 59.9%
COc1cc(CNC(=O)C[C@H](C)CCC=C(C)C)ccc1OCc1cn(-c2cccc([N+](=O)[O-])c2)nn1 — growth percent (HOP-92; SRB; 10 µM, 48 h): 76.2%
CC(C)C[C@@H]1NC(=O)[C@H](C(C)C)NC(=O)[C@H](CC(N)=O)NC(=O)[C@H](CO)NC(=O)[C@H](CO)NC(=O)[C@H](CC(=O)O)NC(=O)[C@H](CC(=O)O)NC(=O)[C@H](Cc2ccccc2)NC(=O)[C@H](Cc2ccc(O)cc2)NC(=O)[C@@H](N)CSSC[C@@H](C(=O)N[C@@H](CCCCN)C(=O)N[C@@H](CCCCN)C(=O)N[C@@H](Cc2ccc(O)cc2)C(=O)N[C@@H](CCCNC(=N)N)C(=O)N[C@@H](CO)C(=O)O)NC1=O — apoptotic cells (NP-1 tubular epithelial cells; annexin V; concentration not given, together with: hypoxia): inhibited
